Assay results gathered from unrelated publications.
Lines come from different studies, so protocols differ. “And” joins repeats or separate records; there may be more than shown. ± gives the spread as reported.
Beta-glucuronidase: Beta-glucuronidase (Streptococcus agalactiae serotype V, UniProt Q8E0N2)
UniProt Q8E0N2, sequence (whole entry, looked up): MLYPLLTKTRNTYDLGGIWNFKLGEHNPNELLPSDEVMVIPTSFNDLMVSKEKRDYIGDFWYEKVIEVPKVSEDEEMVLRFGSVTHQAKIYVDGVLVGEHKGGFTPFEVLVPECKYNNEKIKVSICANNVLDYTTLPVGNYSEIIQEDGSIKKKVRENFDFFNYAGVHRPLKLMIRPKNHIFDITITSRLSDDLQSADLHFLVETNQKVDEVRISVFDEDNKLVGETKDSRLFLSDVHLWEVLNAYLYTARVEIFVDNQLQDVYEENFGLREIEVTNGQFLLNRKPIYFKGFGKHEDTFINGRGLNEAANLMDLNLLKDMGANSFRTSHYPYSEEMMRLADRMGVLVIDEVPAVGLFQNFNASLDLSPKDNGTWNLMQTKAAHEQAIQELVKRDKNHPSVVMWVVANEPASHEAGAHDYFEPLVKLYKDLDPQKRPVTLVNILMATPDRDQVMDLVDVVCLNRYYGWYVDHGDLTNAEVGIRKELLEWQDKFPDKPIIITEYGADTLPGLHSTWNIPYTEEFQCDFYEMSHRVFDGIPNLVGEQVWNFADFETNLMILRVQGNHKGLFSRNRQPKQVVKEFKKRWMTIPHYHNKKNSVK
UniProt O43148, sequence (whole entry, looked up): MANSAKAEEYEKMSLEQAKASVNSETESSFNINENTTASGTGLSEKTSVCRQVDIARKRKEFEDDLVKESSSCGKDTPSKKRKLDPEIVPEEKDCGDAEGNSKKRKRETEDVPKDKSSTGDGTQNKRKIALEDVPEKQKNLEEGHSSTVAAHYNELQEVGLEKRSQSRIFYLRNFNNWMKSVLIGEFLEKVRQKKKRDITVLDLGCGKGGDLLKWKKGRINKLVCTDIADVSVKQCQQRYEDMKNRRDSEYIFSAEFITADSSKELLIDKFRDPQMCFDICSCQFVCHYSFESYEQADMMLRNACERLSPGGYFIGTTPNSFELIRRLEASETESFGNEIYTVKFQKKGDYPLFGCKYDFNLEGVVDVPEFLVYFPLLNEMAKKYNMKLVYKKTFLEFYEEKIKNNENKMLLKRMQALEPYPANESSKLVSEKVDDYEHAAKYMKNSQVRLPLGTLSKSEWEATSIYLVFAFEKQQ
UniProt P20231, sequence (whole entry, looked up): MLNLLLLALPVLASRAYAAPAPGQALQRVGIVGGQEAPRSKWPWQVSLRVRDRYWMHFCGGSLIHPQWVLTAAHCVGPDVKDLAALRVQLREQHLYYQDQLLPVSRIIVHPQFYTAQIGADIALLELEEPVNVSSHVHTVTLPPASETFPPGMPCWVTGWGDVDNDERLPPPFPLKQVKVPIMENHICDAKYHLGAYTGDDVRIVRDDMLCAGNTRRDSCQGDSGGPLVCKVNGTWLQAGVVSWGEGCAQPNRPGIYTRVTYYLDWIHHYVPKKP
UniProt Q8NER1, sequence (whole entry, looked up): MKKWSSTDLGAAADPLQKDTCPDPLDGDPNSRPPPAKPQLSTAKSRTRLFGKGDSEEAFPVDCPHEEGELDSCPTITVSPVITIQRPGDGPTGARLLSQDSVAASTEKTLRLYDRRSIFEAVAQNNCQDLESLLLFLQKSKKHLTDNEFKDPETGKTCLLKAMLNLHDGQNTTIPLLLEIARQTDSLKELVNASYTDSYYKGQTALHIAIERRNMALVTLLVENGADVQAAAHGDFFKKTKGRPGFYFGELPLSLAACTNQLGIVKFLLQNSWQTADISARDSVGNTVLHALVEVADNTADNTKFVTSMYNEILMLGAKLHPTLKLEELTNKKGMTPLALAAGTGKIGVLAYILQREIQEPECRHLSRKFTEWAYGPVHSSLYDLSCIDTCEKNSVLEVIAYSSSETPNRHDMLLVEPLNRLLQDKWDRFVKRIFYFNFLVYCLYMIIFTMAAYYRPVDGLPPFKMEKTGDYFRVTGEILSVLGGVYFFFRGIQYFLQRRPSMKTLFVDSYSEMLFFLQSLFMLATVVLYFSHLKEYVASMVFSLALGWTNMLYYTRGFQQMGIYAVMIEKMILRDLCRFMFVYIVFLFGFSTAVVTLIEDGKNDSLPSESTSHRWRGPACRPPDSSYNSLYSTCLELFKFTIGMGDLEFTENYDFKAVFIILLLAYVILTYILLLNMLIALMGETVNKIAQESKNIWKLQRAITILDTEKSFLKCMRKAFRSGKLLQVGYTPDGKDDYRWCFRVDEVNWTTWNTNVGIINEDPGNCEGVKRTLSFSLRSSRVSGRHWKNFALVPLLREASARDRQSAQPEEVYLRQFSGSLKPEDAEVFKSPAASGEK
UniProt P62942, sequence (whole entry, looked up): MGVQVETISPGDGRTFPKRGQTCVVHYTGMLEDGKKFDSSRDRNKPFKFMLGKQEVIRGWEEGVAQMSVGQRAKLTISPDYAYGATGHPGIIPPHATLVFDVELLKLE
UniProt O00187, sequence (whole entry, looked up): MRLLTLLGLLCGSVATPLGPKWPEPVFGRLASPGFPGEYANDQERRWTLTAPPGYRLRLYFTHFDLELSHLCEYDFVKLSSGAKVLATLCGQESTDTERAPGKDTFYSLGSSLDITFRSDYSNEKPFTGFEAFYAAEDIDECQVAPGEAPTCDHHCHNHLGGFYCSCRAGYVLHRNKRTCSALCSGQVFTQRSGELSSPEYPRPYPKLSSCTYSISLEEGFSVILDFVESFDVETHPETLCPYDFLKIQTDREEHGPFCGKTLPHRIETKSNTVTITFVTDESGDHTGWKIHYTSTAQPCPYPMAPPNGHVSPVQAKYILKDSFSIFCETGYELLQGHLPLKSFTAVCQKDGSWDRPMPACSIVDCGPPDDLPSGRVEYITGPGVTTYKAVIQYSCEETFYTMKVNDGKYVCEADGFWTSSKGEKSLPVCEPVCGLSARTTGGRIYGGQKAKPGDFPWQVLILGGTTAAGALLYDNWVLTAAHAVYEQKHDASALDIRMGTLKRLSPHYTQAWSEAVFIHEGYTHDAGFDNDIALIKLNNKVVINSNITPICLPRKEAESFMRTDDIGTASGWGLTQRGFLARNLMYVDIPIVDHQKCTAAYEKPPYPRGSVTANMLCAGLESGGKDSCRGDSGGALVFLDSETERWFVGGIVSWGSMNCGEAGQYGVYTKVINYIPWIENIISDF
UniProt A6TAP2, sequence (whole entry, looked up): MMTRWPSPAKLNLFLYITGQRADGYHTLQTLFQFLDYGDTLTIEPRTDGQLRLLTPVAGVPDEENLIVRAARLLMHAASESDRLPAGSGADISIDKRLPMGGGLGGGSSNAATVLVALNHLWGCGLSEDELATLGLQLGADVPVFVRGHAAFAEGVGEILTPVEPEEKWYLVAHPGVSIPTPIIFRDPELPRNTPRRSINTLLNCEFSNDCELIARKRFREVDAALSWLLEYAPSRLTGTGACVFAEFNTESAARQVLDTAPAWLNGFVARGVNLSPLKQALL
UniProt P17812, sequence (whole entry, looked up): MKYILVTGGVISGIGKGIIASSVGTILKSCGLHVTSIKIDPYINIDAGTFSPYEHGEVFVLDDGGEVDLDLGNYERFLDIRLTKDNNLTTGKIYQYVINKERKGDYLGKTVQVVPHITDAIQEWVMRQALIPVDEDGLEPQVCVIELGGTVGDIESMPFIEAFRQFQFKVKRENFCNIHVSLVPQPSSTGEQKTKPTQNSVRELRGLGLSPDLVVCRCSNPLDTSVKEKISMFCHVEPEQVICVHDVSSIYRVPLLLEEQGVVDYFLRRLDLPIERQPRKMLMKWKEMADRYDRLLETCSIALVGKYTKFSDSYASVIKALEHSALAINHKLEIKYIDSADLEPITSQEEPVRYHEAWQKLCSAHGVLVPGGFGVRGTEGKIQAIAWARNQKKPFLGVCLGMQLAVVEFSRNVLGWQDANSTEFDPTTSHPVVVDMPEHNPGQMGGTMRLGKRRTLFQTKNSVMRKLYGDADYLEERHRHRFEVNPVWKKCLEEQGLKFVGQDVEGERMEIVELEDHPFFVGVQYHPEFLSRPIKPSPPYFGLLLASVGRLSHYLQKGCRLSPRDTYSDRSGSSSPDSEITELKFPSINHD
UniProt Q99808, sequence (whole entry, looked up): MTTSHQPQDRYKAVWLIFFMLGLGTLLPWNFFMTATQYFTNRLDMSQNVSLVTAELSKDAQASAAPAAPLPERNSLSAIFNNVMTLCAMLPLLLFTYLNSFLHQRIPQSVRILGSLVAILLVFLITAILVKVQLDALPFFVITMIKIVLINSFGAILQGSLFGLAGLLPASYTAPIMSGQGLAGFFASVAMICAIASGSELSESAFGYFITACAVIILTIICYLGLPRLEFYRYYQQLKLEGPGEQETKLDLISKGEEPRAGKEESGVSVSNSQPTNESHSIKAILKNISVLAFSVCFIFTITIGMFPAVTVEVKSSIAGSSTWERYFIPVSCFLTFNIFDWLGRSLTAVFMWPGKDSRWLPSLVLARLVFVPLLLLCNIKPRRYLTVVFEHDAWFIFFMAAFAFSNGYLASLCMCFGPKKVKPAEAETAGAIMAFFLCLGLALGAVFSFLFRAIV
UniProt P21452, sequence (whole entry, looked up): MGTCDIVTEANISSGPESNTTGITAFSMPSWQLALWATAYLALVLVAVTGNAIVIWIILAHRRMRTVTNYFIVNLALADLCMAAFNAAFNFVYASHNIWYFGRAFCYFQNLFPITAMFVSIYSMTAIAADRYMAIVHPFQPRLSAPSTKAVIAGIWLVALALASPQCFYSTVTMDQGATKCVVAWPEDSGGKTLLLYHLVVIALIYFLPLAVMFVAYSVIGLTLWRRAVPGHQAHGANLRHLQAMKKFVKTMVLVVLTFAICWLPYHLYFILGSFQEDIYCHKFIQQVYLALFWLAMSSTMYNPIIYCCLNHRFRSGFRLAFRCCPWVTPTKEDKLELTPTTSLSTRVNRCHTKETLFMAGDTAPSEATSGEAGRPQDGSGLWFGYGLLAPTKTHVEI

SMILES	target	test	test system	conditions	IC50
COc1ccc(-c2ccc(OC)c(NC(=O)[C@H](C)CS)c2)nn1	VIM-2 (Escherichia coli, UniProt Q5U7L7)	enzyme activity, inhibitor, fluorescence	–	with preincubation	56 nM
O=C(NCCCCCCn1ccc2ccccc21)Oc1ccccc1	Faah (Rattus norvegicus, UniProt P97612)	–	rat brain homogenate	60 min, 37 °C	85 nM
Nc1ccn(CC2COP(=O)(OCCCCCCCCCCCCNC(=O)CCCCC3SCC4NC(=O)NC43)CO2)c(=O)n1 (mixture of isomers)	Sodium-dependent multivitamin transporter (Canis lupus familiaris, UniProt A0A8I3MY61)	biotin uptake	MDCK-MDR1	together with: [3H]-biotin	2900 ± 70 nM
COC1CC(=O)N(C)C=CCCCC(=O)N(C)C(C(C)C)C(=O)N(C)C(CC(C)C)C(=O)OC(C(C)C)CC(C)C1 (centres unmarked)	TACR2 (Homo sapiens, UniProt P21452)	calcium signal, antagonist	–	–	4600 nM
CCC(C)SSc1ncc[nH]1 (centres unmarked)	Genome polyprotein, 3C protease (Human enterovirus 71, UniProt B9VUU3)	protease activity, inhibitor, FRET	Enterovirus A71	DTT 4 mM	> 60000 nM
C1CCc2c(c(N3CCOCC3)nc3sc4c(N5CCNCC5)nnnc4c23)C1	Beta-glucuronidase	–	Streptococcus agalactiae	–	600 ± 200 nM
CC(=O)[C@H]1CC[C@H]2[C@@H]3CC=C4C[C@@H](OS(=O)(=O)O)CC[C@]4(C)[C@H]3CC[C@]12C	TRPC5 (Homo sapiens, UniProt Q9UL62)	ion current, patch clamp	–	–	19000 nM
CC[C@H](C)[C@H](NC(=O)CN(CCOC)C(=O)CN(CCOC)C(=O)CNCCOC)C(=O)N[C@@H](CO)C(=O)N[C@@H](CCC(N)=O)C(=O)N[C@H](C(=O)N[C@@H](CC(N)=O)C(=O)N[C@@H](CCC(=O)O)C(=O)N[C@@H](CCCCN)C(=O)N[C@H](C(=O)N[C@@H](CC(N)=O)C(=O)N[C@@H](CCC(N)=O)C(=O)N[C@@H](CO)C(=O)N[C@@H](CC(C)C)C(=O)N[C@@H](C)C(=O)N[C@@H](Cc1ccccc1)C(=O)N[C@H](C(=O)N[C@@H](CCCNC(=N)N)C(=O)N[C@@H](CCCCN)C(=O)N[C@@H](CO)C(=O)N[C@@H](CC(=O)O)C(=O)N[C@@H](CCC(=O)O)C(=O)O)[C@@H](C)CC)[C@@H](C)CC)C(C)C	hRSV fusion protein 5-helix bundle	binding, fluorescence polarization	–	together with: Fl-C35 tracer 5 nM	> 200000 nM
CC[C@H](C)[C@H](NC(=O)[C@@H]1CSSC[C@H](NC(=O)[C@H](Cc2ccc(O)cc2)NC(=O)CNC(C)=O)C(=O)N[C@@H](CO)C(=O)N[C@@H](CCCNC(=N)N)C(=O)N[C@@H](CO)C(=O)N[C@@H](Cc2ccc(O)cc2)C(=O)N2CCC[C@H]2C(=O)N2CCC[C@H]2C(=O)N[C@@H](C(C)C)C(=O)N1)C(=O)N1CCC[C@H]1C(=O)N[C@@H](CC(=O)O)C(N)=O	Mannan-binding lectin serine protease 2 (Homo sapiens, UniProt O00187)	C3 deposition, inhibitor, ELISA	100-fold diluted human serum	30 min preincubation	303 nM
NS(=O)(=O)c1ccc(NC(=O)c2ccccc2SSc2ccccc2C(=O)Nc2ccc(S(N)(=O)=O)cc2)cc1	Gag-Pol polyprotein, integrase core 50-213 (gag-pol, Human immunodeficiency virus type 1 group M subtype B, UniProt P04585)	disintegration activity	–	integrase catalytic core, 10 mM Mn2+	191 nM
CNC(C)CCc1ccccc1Cl (racemic)	ADRB2 (Homo sapiens, UniProt P07550)	β-arrestin recruitment, antagonist	–	–	> 10000 nM
COc1ccc(CC[C@H]2OC(=O)[C@@H]3CCCCN3C(=O)C(=O)C(C)(C)COC(=O)/C=C/CCN(C)C(=O)[C@H](CC(C)C)N(C)C(=O)[C@H]3CCCN3C(=O)[C@H](Cc3ccccc3)N(C)C(=O)[C@@H](c3ccccc3)NC(=O)CCC(=O)Nc3cccc2c3)cc1OC	FKBP1A/SLC29A1 (Homo sapiens, UniProt P62942+Q99808)	thymidine uptake, inhibitor	PK-15 expressing hENT1	30 min, together with: [3H]-thymidine	589 nM
Cc1ccc2nc(C(F)(F)F)c(C(=O)NCc3cccc(Cl)c3)n2c1	Cytochrome P450 3A4 (CYP3A4, Homo sapiens, UniProt P08684)	enzyme activity, inhibitor	–	together with: VR substrate	43000 nM
CC(C)[C@H](NC(=O)c1ccc(CCc2nc3c(c(=O)[nH]2)CCC3)cc1)C(=O)NC1COC1	MMP14 (Homo sapiens, UniProt P50281)	enzyme activity, inhibitor	–	–	> 5000 nM
CCc1n[nH]c(NC(=O)c2ccc3c(c2)nnn3C)n1	Genome polyprotein, 3C protease (rhinovirus B14, UniProt P03303)	3C protease activity, SAMDI-MS	human rhinovirus	–	57000 nM
C[C@]12CCC[C@H]1[C@@H]1CCc3c(cc(Br)c(O)c3Br)[C@H]1CC2	AKR1C2 (Homo sapiens, UniProt P52895)	enzyme activity, inhibitor, absorbance	–	pH 9	900 nM
CP(=O)(O)CNCc1ccccc1	Urease subunit alpha (Sporosarcina pasteurii, UniProt P41020)	enzyme activity, inhibitor, indophenol colorimetric	–	20 min, pH 7.0, 37 °C, together with: 50 mM urea	256000 ± 12800 nM
Cn1c(=O)c2cc(C(=O)NCCCN3CCCCCC3)sc2c2ccccc21	Bifunctional FPP/GGPP synthase (Plasmodium falciparum, UniProt Q8II79)	FPP production, inhibitor	–	saturating substrate	2000 nM
O=C1c2ccccc2[Se](=O)N1c1ccccc1 (centres unmarked)	HDAC4 (Homo sapiens, UniProt P56524)	enzyme activity, inhibitor, fluorescence	–	–	4700 nM

SMILES	target	test	test system	conditions	IC50
CN[C@H](CC(C)C)C(=O)N[C@H]1C(=O)N[C@@H](CC(N)=O)C(=O)N[C@H]2C(=O)N[C@H]3C(=O)N[C@H](C(=O)N[C@H](C(=O)O)c4cc(O)cc(O)c4-c4cc3ccc4O)[C@H](O)c3ccc(c(Cl)c3)Oc3cc2cc(c3O[C@@H]2O[C@H](CO)[C@@H](O)[C@H](O)[C@H]2O[C@H]2C[C@](C)(NCc3ccc(C(=O)OCCCCCCN(Cc4ccccn4)Cc4ccccn4)cc3)[C@H](O)[C@H](C)O2)Oc2ccc(cc2Cl)[C@H]1O	VIM-1 (Pseudomonas aeruginosa, UniProt A0A0F7KYQ8)	enzyme activity, inhibitor, absorbance	–	–	4000 nM
CCCC[C@@H]1NC(=O)[C@H]([C@@H](C)O)NC(=O)[C@H](CCCNC(=N)N)NC(=O)CNC(=O)CC[C@@H](C(=O)N[C@@H](C)C(=O)N[C@@H](CCCNC(=N)N)C(=O)N[C@@H](CCCCN)C(=O)N[C@@H](CO)C(=O)N[C@H](C(=O)NCC(=O)NCC(N)=O)[C@@H](C)O)NC(=O)[C@H](CCC(N)=O)NC1=O	SETD7 (Homo sapiens, UniProt Q8WTS6)	H3K4 peptide methylation, inhibitor, MALDI-TIMS-TOF MS	–	30 min, 37 °C, together with: H3K4 peptide 10 µM, SAM 30 µM	1440 nM
O=C1c2c(O)cccc2Cc2cccc(O)c21	RNMT (Homo sapiens, UniProt O43148)	enzyme activity, inhibitor	–	–	< 50 nM
C[C@@H](O)[C@H](NC(=O)[C@@H](N)CO)C(=O)N[C@H]1CSC(=O)[C@H](Cc2ccccc2)NC(=O)[C@H](Cc2ccc(O)cc2)NC(=O)[C@H](Cc2ccc(O)cc2)NC(=O)[C@H](CO)NC1=O	accessory gene regulator AgrC (Staphylococcus aureus, UniProt A0A0H2XKA3)	–	–	–	3 nM
CC(C)[C@H]1NC(=O)[C@H](CO)NC(=O)[C@H](CCC(N)=O)NC(=O)[C@H](Cc2ccccc2)NC(=O)[C@H](Cc2ccc3ccccc3c2)NC(=O)[C@H](CCCNC(=N)N)NC(=O)[C@H](CCCNC(=N)N)NC(=O)[C@H](CCCNC(=N)N)NC(=O)[C@H](CCCNC(=N)N)NC(=O)[C@H](Cc2c[nH]cn2)NC(=O)[C@H](Cc2ccc(C(F)(F)P(=O)(O)O)cc2)NC(=O)[C@@H]2CCCN2C1=O	PTPN1 (Homo sapiens, UniProt P18031)	enzyme activity, inhibitor, absorbance	–	–	31 nM
Cc1ccc(C(C)C)cc1.[Au][S]C1=NCCS1.[Cl][Ru][Cl].c1ccc(P(CP(c2ccccc2)c2ccccc2)c2ccccc2)cc1	Cathepsin B (CTSB, Homo sapiens, UniProt P07858)	enzyme activity, inhibitor, fluorescence	–	–	190000 nM
CSCC[C@H](NC(=O)[C@H](Cc1ccccc1)NC(=O)[C@H](Cc1c[nH]cn1)NC(=O)CNC(=O)[C@@H](NC(=O)[C@H](C)NC(=O)[C@H](Cc1c[nH]c2ccccc12)NC(=O)[C@H](CCC(N)=O)NC(=O)[C@@H]1CCC(=O)N1)C(C)C)C(N)=O	GRPR (Homo sapiens, UniProt P30550)	ligand displacement in cells, radioligand	–	–	2.69 nM
C=C(C)[C@]12C[C@@H](C)[C@@]34O[C@](Cc5ccccc5)(O[C@@H]1[C@@H]3C=C(COC(=O)Cc1cc(I)c(O)c(OC)c1)C[C@]1(O)C(=O)C(C)=C[C@@H]41)O2	TRPV1 (Homo sapiens, UniProt Q8NER1)	acid-evoked calcium influx, antagonist	HEK293, human	pH 5	114 ± 50.7 nM
O=C1C=CC(=O)C=C1	mRNA cap guanine-N(7) methyltransferase, with RAM (RNMT, Homo sapiens, UniProt O43148)	N7-methyltransferase activity, inhibitor, Py-FLINT	–	RNMT-RAM complex, together with: SAM 20 µM	30600 ± 4300 nM
O=C(Cc1ccc(F)cc1)Nc1nc(-c2ccccn2)cs1	CTP synthase 1 (Homo sapiens, UniProt P17812)	enzyme activity, inhibitor, ADP detection	–	–	> 100000 nM
COC(=O)[C@@H]1CCCN1C(=O)[C@@H](O)[C@H](N)CC(C)C	Xaa-Pro dipeptidase (Homo sapiens, UniProt P12955)	enzyme activity, inhibitor	–	–	675 nM
N=C(N)NC(=O)c1ccc(C(=O)NCCCC[C@H](NC(=O)[C@H](Cc2c[nH]c3ccccc23)NC(=O)[C@H](CCCCN)NC(=O)CNC(=O)CCC(=O)NN)C(N)=O)[nH]1	Tryptase beta-2 (TPSB2, Homo sapiens, UniProt P20231)	–	–	pH 7.4	23600 nM and ~25000 nM
O=C(NCCN1CCC2(CC1)C(=O)NCN2C(=O)C1CCC1)c1ccc2ccccc2c1	Phospholipase D1 (Homo sapiens, UniProt Q13393)	enzyme activity, inhibitor	–	–	4000 nM
O=C(O)c1cc(Br)c[nH]1	4-diphosphocytidyl-2-C-methyl-D-erythritol kinase (ispE, Klebsiella pneumoniae subsp. pneumoniae, UniProt A6TAP2)	enzyme activity, PK/LDH coupled spectrophotometric	–	–	124000 ± 1100 nM
C=C1C(=O)N[C@@H](C)C(=O)N(C)[C@@H](C)C(=O)N[C@@H]([C@@H](C)OC(=O)[C@@H](NC(C)=O)[C@@H](C)O)C(=O)N(C)[C@@H]([C@@H](C)OC)C(=O)O[C@H](C)[C@H](NC(C)=O)C(=O)O[C@H](Cc2ccccc2)C(=O)N1C	Guanine nucleotide binding protein q polypeptide (Cricetulus griseus, UniProt Q3HR10)	inositol phosphate, antagonist, TR-FRET	–	–	32300 nM
CNc1nc2sc3c(N4CCNCC4)nnnc3c2c2c1CCCC2	Beta-glucuronidase	–	Streptococcus agalactiae	–	770 ± 90 nM
CC[C@H](C)[C@@H]1NC(=O)[C@H](Cc2ccccc2)NC(=O)[C@H](C)NC(=O)[C@@H](NC(=O)[C@@H](NC(=O)[C@H](CO)NC(=O)[C@@H](N)Cc2ccc(O)cc2)[C@@H](C)O)CSC(=O)[C@H](CCSC)NC1=O	Accessory gene regulator protein C (Staphylococcus aureus, UniProt Q309Z2)	–	–	–	0.0827 nM
COc1ccc(N=Nc2cccc(NC(=O)CCCCCCC(=O)NO)c2)cc1	HDAC2 (Homo sapiens, UniProt Q92769)	enzyme activity, inhibitor	–	trans isomer	113 ± 20 nM
N#Cc1cn([C@@H]2O[C@H](CSCC[C@H](N)C(=O)O)[C@@H](O)[C@H]2O)c2ncnc(N)c12	EHMT2 (Homo sapiens, UniProt Q96KQ7)	enzyme activity, inhibitor, radiometric	–	–	> 50000 nM

Excerpt of the above:
SMILES	target	test	test system	conditions	IC50
O=C(NCCCCCCn1ccc2ccccc21)Oc1ccccc1	Faah (Rattus norvegicus, UniProt P97612)	–	rat brain homogenate	60 min, 37 °C	85 nM
Nc1ccn(CC2COP(=O)(OCCCCCCCCCCCCNC(=O)CCCCC3SCC4NC(=O)NC43)CO2)c(=O)n1 (mixture of isomers)	Sodium-dependent multivitamin transporter (Canis lupus familiaris, UniProt A0A8I3MY61)	biotin uptake	MDCK-MDR1	together with: [3H]-biotin	2900 ± 70 nM
COC1CC(=O)N(C)C=CCCCC(=O)N(C)C(C(C)C)C(=O)N(C)C(CC(C)C)C(=O)OC(C(C)C)CC(C)C1 (centres unmarked)	TACR2 (Homo sapiens, UniProt P21452)	calcium signal, antagonist	–	–	4600 nM
CCC(C)SSc1ncc[nH]1 (centres unmarked)	Genome polyprotein, 3C protease (Human enterovirus 71, UniProt B9VUU3)	protease activity, inhibitor, FRET	Enterovirus A71	DTT 4 mM	> 60000 nM
C1CCc2c(c(N3CCOCC3)nc3sc4c(N5CCNCC5)nnnc4c23)C1	Beta-glucuronidase	–	Streptococcus agalactiae	–	600 ± 200 nM
